Assay results pooled from the literature.
Each line is one published result; not all experiments were run side by side.
Potassium/sodium hyperpolarization-activated cyclic nucleotide-gated channel 1: Potassium/sodium hyperpolarization-activated cyclic nucleotide-gated channel 1 (Homo sapiens, UniProt O60741)
Chain of UniProt O60741 (whole entry, looked up): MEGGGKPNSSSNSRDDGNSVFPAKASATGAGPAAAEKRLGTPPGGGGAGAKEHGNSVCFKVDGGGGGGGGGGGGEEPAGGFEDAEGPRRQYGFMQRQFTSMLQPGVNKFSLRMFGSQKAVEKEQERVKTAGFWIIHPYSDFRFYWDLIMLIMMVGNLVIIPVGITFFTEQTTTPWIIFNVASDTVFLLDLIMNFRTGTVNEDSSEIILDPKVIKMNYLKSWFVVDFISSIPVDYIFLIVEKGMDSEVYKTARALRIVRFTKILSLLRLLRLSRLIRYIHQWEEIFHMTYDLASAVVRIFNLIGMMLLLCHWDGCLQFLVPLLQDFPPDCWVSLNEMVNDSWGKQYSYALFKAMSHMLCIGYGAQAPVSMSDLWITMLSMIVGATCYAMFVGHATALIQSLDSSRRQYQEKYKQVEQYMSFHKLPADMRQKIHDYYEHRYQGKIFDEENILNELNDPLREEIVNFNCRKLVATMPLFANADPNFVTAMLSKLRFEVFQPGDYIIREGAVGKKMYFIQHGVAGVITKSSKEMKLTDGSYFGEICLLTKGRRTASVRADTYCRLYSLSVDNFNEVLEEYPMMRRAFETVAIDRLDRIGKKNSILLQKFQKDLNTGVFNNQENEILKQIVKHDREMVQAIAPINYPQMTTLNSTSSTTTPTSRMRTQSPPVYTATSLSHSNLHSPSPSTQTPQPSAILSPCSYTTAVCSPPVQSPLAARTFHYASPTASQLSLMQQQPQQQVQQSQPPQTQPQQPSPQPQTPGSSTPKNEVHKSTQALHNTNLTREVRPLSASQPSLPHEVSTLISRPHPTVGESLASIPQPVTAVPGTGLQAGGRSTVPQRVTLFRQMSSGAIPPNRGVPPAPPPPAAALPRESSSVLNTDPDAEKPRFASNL
PPO3: PPO3 (Agaricus bisporus, UniProt C7FF04)
Chain of UniProt C7FF04 (whole entry, looked up): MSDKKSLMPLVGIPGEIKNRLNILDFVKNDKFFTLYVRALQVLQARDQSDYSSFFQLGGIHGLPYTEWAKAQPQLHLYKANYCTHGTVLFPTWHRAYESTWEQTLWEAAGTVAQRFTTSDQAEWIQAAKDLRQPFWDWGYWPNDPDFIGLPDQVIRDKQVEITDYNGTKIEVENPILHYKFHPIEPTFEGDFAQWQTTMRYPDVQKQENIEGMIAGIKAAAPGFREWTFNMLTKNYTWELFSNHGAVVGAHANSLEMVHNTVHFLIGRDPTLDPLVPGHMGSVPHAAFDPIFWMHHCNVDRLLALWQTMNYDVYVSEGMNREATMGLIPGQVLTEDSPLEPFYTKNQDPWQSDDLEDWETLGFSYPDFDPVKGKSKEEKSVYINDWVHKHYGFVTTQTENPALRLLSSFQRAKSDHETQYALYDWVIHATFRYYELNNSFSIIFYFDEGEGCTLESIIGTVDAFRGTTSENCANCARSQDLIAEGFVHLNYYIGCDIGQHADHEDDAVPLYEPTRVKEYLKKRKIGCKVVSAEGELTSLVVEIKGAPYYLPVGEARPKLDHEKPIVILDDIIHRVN
4'-phosphopantetheinyl transferase PptT: 4'-phosphopantetheinyl transferase PptT (Mycobacterium tuberculosis, UniProt O33336)
Chain of UniProt O33336 (whole entry, looked up): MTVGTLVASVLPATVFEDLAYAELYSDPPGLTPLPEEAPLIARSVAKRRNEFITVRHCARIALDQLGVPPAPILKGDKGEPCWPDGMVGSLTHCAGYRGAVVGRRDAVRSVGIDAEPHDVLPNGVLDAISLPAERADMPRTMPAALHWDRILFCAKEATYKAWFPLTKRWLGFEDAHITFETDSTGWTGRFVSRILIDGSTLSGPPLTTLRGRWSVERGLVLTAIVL
CHUK: Inhibitor of nuclear factor kappa-B kinase subunit alpha (CHUK, Homo sapiens, UniProt O15111)
Chain of UniProt O15111 (whole entry, looked up): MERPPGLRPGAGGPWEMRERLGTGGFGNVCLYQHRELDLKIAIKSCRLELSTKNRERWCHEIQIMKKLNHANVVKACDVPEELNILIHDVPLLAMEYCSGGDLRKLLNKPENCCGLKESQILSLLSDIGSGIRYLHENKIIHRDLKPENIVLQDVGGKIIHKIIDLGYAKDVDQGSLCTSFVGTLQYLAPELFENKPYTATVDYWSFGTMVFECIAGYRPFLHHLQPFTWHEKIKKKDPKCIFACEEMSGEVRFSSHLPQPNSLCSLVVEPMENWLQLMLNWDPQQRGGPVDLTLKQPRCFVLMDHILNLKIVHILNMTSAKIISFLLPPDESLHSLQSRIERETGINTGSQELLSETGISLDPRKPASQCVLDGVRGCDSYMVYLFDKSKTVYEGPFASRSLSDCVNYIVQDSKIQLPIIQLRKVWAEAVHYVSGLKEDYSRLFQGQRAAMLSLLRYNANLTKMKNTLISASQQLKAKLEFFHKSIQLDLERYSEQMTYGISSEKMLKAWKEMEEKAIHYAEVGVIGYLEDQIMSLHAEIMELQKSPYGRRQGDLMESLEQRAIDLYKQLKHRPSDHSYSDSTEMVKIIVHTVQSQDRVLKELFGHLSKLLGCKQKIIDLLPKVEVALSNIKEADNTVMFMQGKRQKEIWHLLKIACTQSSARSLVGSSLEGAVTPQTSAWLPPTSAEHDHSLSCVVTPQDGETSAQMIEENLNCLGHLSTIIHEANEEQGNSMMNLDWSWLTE
Chain of UniProt Q9UKP6 (whole entry, looked up): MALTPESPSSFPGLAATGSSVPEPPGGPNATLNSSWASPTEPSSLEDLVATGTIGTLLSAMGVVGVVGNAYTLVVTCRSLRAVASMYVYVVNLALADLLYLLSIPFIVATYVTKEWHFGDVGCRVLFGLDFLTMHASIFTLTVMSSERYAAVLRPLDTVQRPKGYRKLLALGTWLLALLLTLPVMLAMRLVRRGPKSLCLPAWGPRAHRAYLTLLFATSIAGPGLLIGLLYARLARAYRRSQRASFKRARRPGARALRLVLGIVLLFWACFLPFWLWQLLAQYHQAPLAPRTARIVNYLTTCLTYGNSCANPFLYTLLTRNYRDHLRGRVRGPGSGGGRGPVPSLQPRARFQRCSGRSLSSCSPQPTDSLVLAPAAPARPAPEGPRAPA
Chain of UniProt O43148 (whole entry, looked up): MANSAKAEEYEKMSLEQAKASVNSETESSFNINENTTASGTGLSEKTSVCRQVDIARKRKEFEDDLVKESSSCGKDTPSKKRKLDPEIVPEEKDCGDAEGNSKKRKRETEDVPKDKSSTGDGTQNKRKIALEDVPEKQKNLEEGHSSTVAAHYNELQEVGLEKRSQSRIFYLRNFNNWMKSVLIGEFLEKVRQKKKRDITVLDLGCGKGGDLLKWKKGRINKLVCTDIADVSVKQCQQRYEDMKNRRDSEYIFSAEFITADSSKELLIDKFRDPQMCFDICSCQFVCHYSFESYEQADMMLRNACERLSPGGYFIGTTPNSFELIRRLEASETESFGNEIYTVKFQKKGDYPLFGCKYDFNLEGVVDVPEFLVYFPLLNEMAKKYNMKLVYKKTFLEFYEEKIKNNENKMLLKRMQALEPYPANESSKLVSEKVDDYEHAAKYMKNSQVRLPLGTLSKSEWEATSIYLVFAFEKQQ
Chain of UniProt Q5U3Y7 (whole entry, looked up): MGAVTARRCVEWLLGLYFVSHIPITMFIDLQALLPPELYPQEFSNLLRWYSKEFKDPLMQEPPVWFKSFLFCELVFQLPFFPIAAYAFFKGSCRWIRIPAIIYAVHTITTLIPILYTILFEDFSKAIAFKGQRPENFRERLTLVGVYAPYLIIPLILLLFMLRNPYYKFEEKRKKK
Chain of UniProt P41595 (whole entry, looked up): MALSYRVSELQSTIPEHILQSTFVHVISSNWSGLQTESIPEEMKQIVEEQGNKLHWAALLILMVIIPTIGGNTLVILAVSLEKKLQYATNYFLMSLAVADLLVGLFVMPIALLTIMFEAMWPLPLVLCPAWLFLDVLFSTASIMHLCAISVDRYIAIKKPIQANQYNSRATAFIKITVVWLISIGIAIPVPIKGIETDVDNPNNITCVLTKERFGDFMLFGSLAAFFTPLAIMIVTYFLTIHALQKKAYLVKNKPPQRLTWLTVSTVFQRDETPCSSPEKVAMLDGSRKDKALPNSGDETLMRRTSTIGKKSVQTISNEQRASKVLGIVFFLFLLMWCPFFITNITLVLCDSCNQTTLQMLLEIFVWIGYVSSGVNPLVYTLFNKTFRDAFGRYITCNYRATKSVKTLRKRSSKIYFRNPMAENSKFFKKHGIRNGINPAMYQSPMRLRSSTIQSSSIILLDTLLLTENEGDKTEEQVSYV
Chain of UniProt P07550 (whole entry, looked up): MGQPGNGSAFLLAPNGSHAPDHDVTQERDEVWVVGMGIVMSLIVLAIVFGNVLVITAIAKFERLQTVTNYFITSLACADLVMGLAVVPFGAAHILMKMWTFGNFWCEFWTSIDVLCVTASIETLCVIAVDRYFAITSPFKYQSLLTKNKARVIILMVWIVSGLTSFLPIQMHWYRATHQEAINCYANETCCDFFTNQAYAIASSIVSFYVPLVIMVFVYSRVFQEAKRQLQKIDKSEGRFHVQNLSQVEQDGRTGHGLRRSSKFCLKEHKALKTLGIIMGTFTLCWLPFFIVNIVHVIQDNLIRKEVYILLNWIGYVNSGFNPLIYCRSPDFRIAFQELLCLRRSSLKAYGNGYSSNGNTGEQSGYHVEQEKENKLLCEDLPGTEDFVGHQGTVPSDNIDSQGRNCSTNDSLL
Chain of UniProt P41145 (whole entry, looked up): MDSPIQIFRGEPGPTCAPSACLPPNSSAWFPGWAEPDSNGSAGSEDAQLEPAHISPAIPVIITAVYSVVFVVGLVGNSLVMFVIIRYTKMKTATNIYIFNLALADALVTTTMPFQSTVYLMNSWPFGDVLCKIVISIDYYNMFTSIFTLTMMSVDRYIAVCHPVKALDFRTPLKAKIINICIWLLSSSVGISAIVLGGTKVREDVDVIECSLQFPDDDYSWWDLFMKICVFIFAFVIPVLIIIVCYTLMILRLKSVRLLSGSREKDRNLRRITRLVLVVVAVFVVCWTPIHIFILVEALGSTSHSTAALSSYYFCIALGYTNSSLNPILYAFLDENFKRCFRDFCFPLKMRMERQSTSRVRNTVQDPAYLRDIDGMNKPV

SMILES = Cc1ncc2c(n1)[C@H](C)[C@@H]1C[C@H]2[C@@](C)(O)CN1Cc1ccccc1; target = Tmem97 (Rattus norvegicus, UniProt Q5U3Y7); assay = ligand displacement, radioligand; conditions = 1 µM; endpoint = inhibition; result = 0%
SMILES = COc1cc2c(cc1OC)-c1c(OC)c(OC)cc3c1[C@H](C2)N(C)CC3 (racemic); target = HTR2B (Homo sapiens, UniProt P41595); assay = ligand displacement, radioligand; conditions = 10 µM; endpoint = inhibition; result = 87%
SMILES = Nc1c(Br)cc(Br)cc1CN[C@H]1CC[C@H](O)CC1; target = Potassium/sodium hyperpolarization-activated cyclic nucleotide-gated channel 1; assay = ion current, inhibitor; conditions = 30 µM; endpoint = inhibition; result = -0.65%
SMILES = COc1cc(/C=C/C(=O)O)ccc1OCc1cn(CC(=O)Nc2cccc(C)c2)nn1; target = PPO3; assay = enzyme activity, inhibitor; conditions = 40 µM; endpoint = inhibition; result = 13.5%
SMILES = O=C1NC(=O)C(c2ccccc2)(c2ccccc2)N1; target = Potassium/sodium hyperpolarization-activated cyclic nucleotide-gated channel 1; assay = ion current, inhibitor; conditions = 30 µM; endpoint = inhibition; result = 6.55%
SMILES = Cc1nn(C)cc1-c1nc2c(N3CCN(Cc4ccc(Cl)cc4)CC3)c(Cl)cnc2[nH]1; target = GAK (Homo sapiens, UniProt O14976); assay = binding, competition with immobilised ligand; conditions = 1 µM; endpoint = remaining binding; result = 94%
SMILES = O=C(Nc1cccnn1)N1CCN([C@@H]2CCOc3cc(C(F)(F)F)ccc32)CC1; target = UTS2R (Homo sapiens, UniProt Q9UKP6); assay = cell-free assay; conditions = 20 µM; endpoint = inhibition; result = 26%
SMILES = C#Cc1n[nH]c2c(-c3cn([C@@H](C)c4ccccn4)c(=O)[nH]c3=O)cc(F)cc12; target = RET (Homo sapiens, UniProt P07949); assay = enzyme activity, inhibitor; conditions = 0.1 µM; endpoint = inhibition; result = 6.5%
SMILES = NC(=O)c1cncc(Cn2c(=S)[nH]c3cc(CO)c(Cl)cc3c2=O)c1; target = 4'-phosphopantetheinyl transferase PptT; assay = enzyme activity, inhibitor, FP; endpoint = IC50; result = 0.238 µM
SMILES = CC(C)CC(=O)OC[C@H]1O[C@@](C#N)(c2ccc3c(N)ncnn23)[C@H](O)[C@@H]1O; target = Estrogen receptor (ESR1, Homo sapiens, UniProt P03372); assay = cell-free assay; conditions = 20 µM; endpoint = inhibition; result = -2%
SMILES = CC(C)NCC(O)COc1cccc2ccccc12 (stereo not drawn); target = Potassium/sodium hyperpolarization-activated cyclic nucleotide-gated channel 1; assay = ion current, inhibitor; conditions = 30 µM; endpoint = inhibition; result = 2.99%
SMILES = CN1CCC[C@H]1c1cccnc1; target = ADRB2 (Homo sapiens, UniProt P07550); assay = ligand displacement; conditions = 50 µM; endpoint = inhibition; result = -3.36%
SMILES = CC12CC3CC(C)(C1)CC(N)(C3)C2; target = Potassium/sodium hyperpolarization-activated cyclic nucleotide-gated channel 1; assay = ion current, inhibitor; conditions = 10 µM; endpoint = inhibition; result = 5.57%
SMILES = Cc1nc(Nc2ccc(CC(=O)O)cc2)nc(Nc2ccc(F)c(C(F)(F)F)c2)c1C; target = PDE4A (Homo sapiens, UniProt P27815); assay = enzyme activity, inhibitor, FP; conditions = 200 µM; endpoint = inhibition; result = 36%
SMILES = Cn1cc(-c2cccc(N3CCc4c(sc5c4CC(C)(C)C5)C3=O)c2CO)cc(Nc2ccncn2)c1=O; target = PDGFRA (Homo sapiens, UniProt P16234, D842V); assay = enzyme activity, inhibitor; conditions = 1 µM; endpoint = inhibition; result = 0%
SMILES = COc1ncccc1-c1cnn2ccc(N3CCN(C(=O)OC(C)C)CC3)nc12; target = CHUK; assay = binding, competition with immobilised ligand; conditions = 1 µM; endpoint = remaining binding; result = 67%
SMILES = CC[C@H](C)[C@H](NC(=O)[C@@H](NC(=O)[C@H](N)Cc1ccccc1)C(C)C)C(=O)N[C@@H](C)C(N)=O; target = APP (Homo sapiens, UniProt P05067); assay = amyloid aggregation, inhibitor, fluorescence; conditions = 4 µM, 24 h; endpoint = inhibition; result = 100%
SMILES = Nc1ncnc2c1ncn2[C@@H]1O[C@H](C[C@@H](N)CC[C@H](N)C(=O)O)[C@@H](O)[C@H]1O; target = RNMT (Homo sapiens, UniProt O43148); assay = enzyme activity, inhibitor; conditions = 0.1953 µM; endpoint = inhibition; result = 13.9%
SMILES = [2H]c1c([2H])c([C@]2([2H])CCCN2C(=O)C(C)(C)Oc2ccc3cn[nH]c3c2)c([2H])c([2H])c1C([2H])([2H])[2H]; target = NEK5 (Homo sapiens, UniProt Q6P3R8); assay = binding, competition with immobilised ligand; conditions = 1 µM; endpoint = remaining binding; result = 83%
SMILES = Nc1ncc(-c2nc(N3CCOCC3)nc(N3CCOCC3)n2)c(C(F)F)n1; target = CHUK; assay = binding, competition with immobilised ligand; conditions = 10 µM; endpoint = remaining binding; result = 39%
SMILES = CCCN1C[C@H](CSC)C[C@@H]2c3cccc4[nH]cc(c34)C[C@H]21; target = Potassium/sodium hyperpolarization-activated cyclic nucleotide-gated channel 1; assay = ion current, inhibitor; conditions = 3 µM; endpoint = inhibition; result = 1.52%
SMILES = CC(C)C[C@H]1C(=O)N2CCC[C@H]2[C@]2(O)O[C@](NC(=O)[C@@H]3C=C4c5cccc6[nH]c(Br)c(c56)C[C@H]4[N+](C)(C)C3)(C(C)C)C(=O)N12; target = OPRK1 (Homo sapiens, UniProt P41145); assay = ligand displacement, radioligand; conditions = 10 µM; endpoint = inhibition; result = 80%
SMILES = c1cncc([C@@H]2CCCN2)c1; target = HTR1B (Homo sapiens, UniProt P28222); assay = ligand displacement; conditions = 50 µM; endpoint = inhibition; result = 7.36%
SMILES = Cn1c(=O)c2[nH]cnc2n(C)c1=O; target = Potassium/sodium hyperpolarization-activated cyclic nucleotide-gated channel 1; assay = ion current, inhibitor; conditions = 30 µM; endpoint = inhibition; result = 10.3%
SMILES = COc1cc(/C=C/C(=O)O)ccc1OCc1cn(CC(=O)Nc2ccc(C)cc2)nn1; target = PPO3; assay = enzyme activity, inhibitor; conditions = 40 µM; endpoint = inhibition; result = 13.2%
SMILES = CC(=O)Nc1ccc(O)cc1; target = Potassium/sodium hyperpolarization-activated cyclic nucleotide-gated channel 1; assay = ion current, inhibitor; conditions = 30 µM; endpoint = inhibition; result = 19.3%
SMILES = N#Cc1ccc2[nH]c(=S)n(Cc3cccnc3)c(=O)c2c1; target = 4'-phosphopantetheinyl transferase PptT; assay = enzyme activity, inhibitor, FP; endpoint = IC50; result = 0.29 µM

Repeated from above:
SMILES = CN1CCC[C@H]1c1cccnc1; target = ADRB2 (Homo sapiens, UniProt P07550); assay = ligand displacement; conditions = 50 µM; endpoint = inhibition; result = -3.36%
SMILES = CC12CC3CC(C)(C1)CC(N)(C3)C2; target = Potassium/sodium hyperpolarization-activated cyclic nucleotide-gated channel 1; assay = ion current, inhibitor; conditions = 10 µM; endpoint = inhibition; result = 5.57%
SMILES = Cc1nc(Nc2ccc(CC(=O)O)cc2)nc(Nc2ccc(F)c(C(F)(F)F)c2)c1C; target = PDE4A (Homo sapiens, UniProt P27815); assay = enzyme activity, inhibitor, FP; conditions = 200 µM; endpoint = inhibition; result = 36%
SMILES = Cn1cc(-c2cccc(N3CCc4c(sc5c4CC(C)(C)C5)C3=O)c2CO)cc(Nc2ccncn2)c1=O; target = PDGFRA (Homo sapiens, UniProt P16234, D842V); assay = enzyme activity, inhibitor; conditions = 1 µM; endpoint = inhibition; result = 0%
